Experimental data of several laboratories.
Parts stem from different laboratories: compare values within a part only.

Block 1 — technique: RNA Bind-n-Seq; form: RNA; matrix: in vitro; concentration: not given; setting: RNA with constant flanks, ends assumed; relative to: input RNA pool; direction: higher = stronger binding
Target: RING finger protein unkempt homolog, zinc fingers 1-6, GST-SBP tag (UNK, Homo sapiens, UniProt Q9C0B0, residues 30-357)
Residues (chain): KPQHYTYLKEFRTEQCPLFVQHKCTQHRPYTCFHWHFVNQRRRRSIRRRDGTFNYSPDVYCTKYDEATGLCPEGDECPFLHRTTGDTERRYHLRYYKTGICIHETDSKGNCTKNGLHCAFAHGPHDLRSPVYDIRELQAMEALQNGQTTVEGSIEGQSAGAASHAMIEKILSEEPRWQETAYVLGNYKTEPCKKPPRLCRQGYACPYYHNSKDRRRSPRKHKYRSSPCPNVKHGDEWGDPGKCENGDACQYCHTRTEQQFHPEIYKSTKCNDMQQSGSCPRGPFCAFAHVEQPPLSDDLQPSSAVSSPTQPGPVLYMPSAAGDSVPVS
The bound/input enrichment of `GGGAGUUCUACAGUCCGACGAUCGGCGGCAGCCCUGGUUAGCUGAUCACACCCAGGUGUCAUGAUGCCAACAUCCUAGGUUCCCCGUUUUUGGUUUUGGUAACUUAGUGCGUAGCUCCAGGUGCCGCAUCUACUCGCCAAUCUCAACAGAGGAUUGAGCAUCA` is reported as 0.174 ratio.
`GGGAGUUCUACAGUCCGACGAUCGAAACAAGAUGGCGGGUUCGUGGUGAGAAGCCGUCAAGCAGGAGUAGAAAUUGGUAUGCUCCGAAGCAGAUUCUAAAAGCAGUUUCUCUUCAGAACAUCUUUUUUCAUACCACUUGAUAACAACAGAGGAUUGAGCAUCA` has a bound/input enrichment of 0.211 ratio.
`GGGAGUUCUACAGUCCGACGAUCCUAUAAAGGCAGCGCCCCGGAGAGCUCUUGCGCGUCUUGUUCUUGCCUGGUGUCGGUGGUCCGUUUCUGCGACUUGUGUUGGGACUGCUGAUAGGAAGAUGUCUUCAGGAAAUGCUAAAACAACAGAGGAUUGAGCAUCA` gave a bound/input enrichment of 0.126 ratio.
`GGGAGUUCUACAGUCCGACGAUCGCUGAAGUACCACACAUCAGAGAGAGAGUGAUGAGAGAGGGGCGCCACCUGUGCUUCCAGUCCGUAAGCCCAUUGGGAGUAGCCAUUUCUACUCUGAGUUACAUCAACAGGACAAAUCAGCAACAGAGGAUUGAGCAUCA` has a bound/input enrichment of 0.0987 ratio.
The bound/input enrichment of `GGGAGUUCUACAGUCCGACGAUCCCUGAGGUGCGGCACCACUGUCCCAACACUCCCAUCAUCCUAGUGGGAACUAAACUUGAUCUCCGGGAUGAUAAAGACACGAUCGAGAAACUGAAGGAGAAGAAGCUGACUCCCAUCACCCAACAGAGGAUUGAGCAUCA` is reported as 0.295 ratio.
For `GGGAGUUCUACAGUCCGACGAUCUCUGGCUACUGAUGCAGCACAAGAGACGUGUUUUUUUUUUAAAUGAGGAAAGACGCUGUUCCGGUUUGGUUUGGUUUCAUUUUAAUUACUCUAGGGAAAACACUGACGAAUGGUCAGCGCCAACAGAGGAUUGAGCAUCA`, the bound/input enrichment was 0.49 ratio.
`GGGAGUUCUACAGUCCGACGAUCAGCACAACACCAGCUAAGCUCAGGAACCCUUGCACAAGUGAACAGAACUGCACCAGCCCAUUCCGCUACAAAAAUGUGCUCAGUCUUACUAAUAAAGGAGAAGUAUUUAAUGAACUUGUUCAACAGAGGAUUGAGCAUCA` gave a bound/input enrichment of 0.416 ratio.
`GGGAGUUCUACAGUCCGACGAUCGAGAUGAAGAAGAAGAUUAACCUGGAGUUAAGGAACAGAUCCCCGGAGGAGGUGACAGAGUCCGUCCUUGAUAAUUGCCUGUGUGUCAAUGGGGAAAUUGAAGGCCUGAAUGAUACUUUCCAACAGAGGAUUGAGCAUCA` has a bound/input enrichment of 0.251 ratio.

Block 2 — technique: protein binding microarray; form: double-stranded DNA, one strand shown; matrix: in vitro; concentration: not given; relative to: not given; direction: higher = stronger binding
Target: Histone acetyltransferase KAT6A, winged helix 2, GST fusion (KAT6A, Homo sapiens, UniProt Q92794, residues 85-181)
Setting: 8-mer, flanks averaged, mean of 2 arrays, mostly near background
Target sequence (chain): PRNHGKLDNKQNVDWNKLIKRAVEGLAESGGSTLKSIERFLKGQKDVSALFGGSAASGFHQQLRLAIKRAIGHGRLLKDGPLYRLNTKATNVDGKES
The E-score of `CTTGCCCC` is reported as 0.115.
The E-score of `GCTCGAGC` is reported as 0.123.
The E-score of `AGCTCCTG` is reported as -0.114.
With `GAGACCTC` the E-score was 0.0307.
With `GGCCTAGA` the E-score was -0.201.
For `AGACCATC`, the E-score was -0.192.
`GCTACTAA` has an E-score of 0.171.
`GACGCGCA` gave an E-score of 0.0585.
`ATGCCAAT` gave an E-score of 0.00351.
`GACATAAC` has an E-score of -0.132.
With `AACTCGAG` the E-score was -0.105.
For `CGCTCGCC`, the E-score was 0.11.

Block 3 — technique: protein-binding microarray; form: double-stranded DNA, one strand shown; matrix: in vitro; concentration: 0.8 µM; setting: whole 60-bp probe, no competitor; direction: higher = stronger binding
Target: Centromere-binding protein 1, full length, N-terminal tag (CBF1, Saccharomyces cerevisiae, UniProt P17106, residues 1-351)
Sequence of UniProt P17106 (whole entry, looked up): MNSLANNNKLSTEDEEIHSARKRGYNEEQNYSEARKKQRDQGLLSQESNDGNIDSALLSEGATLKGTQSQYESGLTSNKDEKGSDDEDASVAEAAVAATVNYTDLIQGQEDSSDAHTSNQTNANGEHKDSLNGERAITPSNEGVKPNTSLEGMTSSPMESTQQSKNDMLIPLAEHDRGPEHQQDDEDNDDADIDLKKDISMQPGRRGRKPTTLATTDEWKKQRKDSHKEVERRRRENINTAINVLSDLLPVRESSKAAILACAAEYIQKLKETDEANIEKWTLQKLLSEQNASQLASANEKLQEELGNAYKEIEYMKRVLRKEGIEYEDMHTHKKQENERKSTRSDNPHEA
With `TGTACGAAGCTATCACGTGTGAATATAGTAGTTAGGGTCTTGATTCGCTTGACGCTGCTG` the fluorescence intensity was 7560 a.u.
For `TGTACGAAGCTATTCCACGTGACTATAGTAGTTAGGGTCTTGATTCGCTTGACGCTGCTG`, the fluorescence intensity was 11700 a.u.
For `GAATCGGAAAGTTGGAACGTGCGCGATTGCACCTAGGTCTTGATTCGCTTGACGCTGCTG`, the fluorescence intensity was 599 a.u.
For `TGTACGAAGCTATATCATGATATTATAGTAGTTAGGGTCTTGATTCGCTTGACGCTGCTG`, the fluorescence intensity was 568 a.u.
With `CTAGCCGTGTCAGGTCACGTGAAGAGAGAAATTTTCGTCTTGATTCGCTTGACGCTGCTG` the fluorescence intensity was 24100 a.u.
`GAAAGAAATGTGCCCAACGTGACCATGGCTCTTTAGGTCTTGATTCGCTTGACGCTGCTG` has a fluorescence intensity of 1830 a.u.
`CTACAATTTTAAGAATACGTGATAGATGCTTCGTTCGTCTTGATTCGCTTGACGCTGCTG` has a fluorescence intensity of 592 a.u.

Mixed results
`PhoQ, residues 284 288 289 292 302 303 GTAMQF` has a fold induction of 6.53 (PhoP, residues 12 14 15 18 19 STHWV (Escherichia coli, UniProt P23836); Sort-seq, refers to: YFP reporter; E. coli; PhoQ-PhoP variant library, with: 10 µM Mg2+; relative to: high Mg2+ state, higher = stronger signaling).

Some of these lines once more (block 2):
For `AGACCATC`, the E-score was -0.192.
`GCTACTAA` has an E-score of 0.171.
